Experimental data pooled from the literature.
Lines come from different studies, so protocols differ. “And” joins repeats or separate records; there may be more than shown.

C#CCCCC[C@H](C)C[C@@H](C)C(=O)N[C@@H](C)C(=O)N1CCC[C@H]1C(=O)N[C@H](C(=O)N[C@H](C(=O)N[C@H](C(=O)N[C@@H](Cc1ccccc1)C(=O)N1CCC[C@H]1C(=O)N1CCC[C@H]1C(C)=O)C(C)C)C(C)C)C(C)C has an IC50 of 352 µM and 282 µM and 349 µM (HEK293; cell growth or viability, SRB).
The IC50 of Cc1cc(Nc2nc(C[C@@]3(C(=O)O)CCN(Cc4cccc(Cl)c4F)[C@H](C)C3)cc(C)c2F)[nH]n1 is reported as 0.061 µM (CoC1; cell growth or viability, ATP luminescence; 5 days).
The IC50 of CC[C@H](C)[C@H](NC(=O)[C@H](Cc1c[nH]cn1)NC(=O)[C@H](CCCNC(=N)N)NC(=O)[C@H](CCCNC(=N)N)NC(=O)[C@H](CCCNC(=N)N)NC(=O)CNC(=O)[C@H](CCCNC(=N)N)NC(=O)[C@H](CCCNC(=N)N)NC(=O)[C@H](CCCNC(=N)N)NC(=O)[C@H](CCC(N)=O)NC(=O)[C@H](CCCNC(=N)N)NC(=O)[C@H](CCCNC(=N)N)NC(=O)[C@H](CCCCN)NC(=O)[C@H](CCCCN)NC(=O)[C@H](CCCNC(=N)N)NC(C)=O)C(=O)N[C@H](C(=O)N[C@@H](CCCNC(=N)N)C(=O)N[C@@H](CCCCN)C(=O)N[C@@H](CCCNC(=N)N)C(=O)N[C@H](C(=O)N[C@@H](CC(C)C)C(=O)N[C@@H](CCCNC(=N)N)C(=O)N[C@@H](CCCNC(=N)N)C(=O)N[C@@H](CC(C)C)C(=O)N[C@@H](CC(C)C)C(=O)N[C@@H](CCC(N)=O)C(=O)N[C@@H](CCC(=O)O)C(=O)N[C@@H](CCCNC(=N)N)C(N)=O)[C@@H](C)O)C(C)C is reported as 28.6 µM (A-431; cell viability; 18 h, serum-free).
CCC1=C(C)C2=C(c3ccc(C(=O)NCCNC(=O)c4ccc(P(=NC5=[O+][Ru-]([Cl])[n+]6ccccc65)(c5ccccc5)c5ccccc5)cc4)cc3)c3c(C)c(CC)c(C)n3[B-](F)(F)[N+]2=C1C.Cc1ccc(C(C)C)cc1.Cl has an IC50 of 180 µM (IMR-90; cell growth or viability, MTT).
For CCCCCCCC(=O)NCCCC[C@H](NC(=O)CCCCCCC)C(=O)N[C@@H](CCCCNC(=O)CCCCCCC)C(=O)NCC(=O)NCC(=O)NCC(=O)N[C@@H](CS)C(=O)N[C@@H](CCCNC(=N)N)C(=O)N[C@@H](CCCCN)C(=O)N1CCC[C@H]1C(=O)N[C@@H](CS)C(=O)N[C@@H](CCCNC(=N)N)C(=O)N[C@@H](CCCCN)C(=O)N1CCC[C@H]1C(=O)N[C@@H](CS)C(=O)N[C@@H](CCCNC(=N)N)C(=O)N[C@@H](CCCCN)C(=O)N1CCC[C@H]1C(=O)N[C@@H](CS)C(=O)N[C@@H](CCCNC(=N)N)C(=O)N[C@@H](CCCCN)C(=O)N1CCC[C@H]1C(N)=O, the IC50 was 122 µM (HCE-T; cytotoxicity, MTT; 24 h).
CC(C)C12OC1C1OC13C1(C)CCC4=C(COC4=O)C1CC1OC13C2OC(=O)CCCOC1OC(CO)C(O)C(O)C1O (centres unmarked) gave an IC50 of 0.45 µM (LNCaP; cell growth or viability, XTT; 47 h).
With Cc1cc(Oc2nc(N3CC[C@@H](c4ccncc4)C3)ncc2F)[nH]n1 the IC50 was 75.9 µM (prostate cancer cell lines; cell proliferation; average over lines).
CC[C@@H](C)[C@@H](NC(=O)[C@@H](CCCCN)NC(=O)[C@H](NC(=O)[C@@H](CCC(N)=O)NC(=O)[C@@H](CCCNC(=N)N)NC(=O)[C@@H](CC(C)C)NC(=O)CNC(=O)[C@@H](Cc1ccccc1)NC(=O)CNC(=O)[C@@H](Cc1ccc(O)cc1)NC(=O)CNC(=O)[C@@H](CCCCN)NC(=O)[C@H](NC(=O)[C@@H](Cc1ccccc1)NC(=O)[C@H](NC(=O)[C@@H](CC(=O)O)NC(=O)[C@@H](CCCNC(=N)N)NC(=O)[C@@H](C)NC(=O)[C@@H](CO)NC(=O)[C@@H](CCCCN)NC(=O)CN)C(C)C)[C@H](C)O)[C@H](C)CC)C(=O)N[C@H](Cc1c[nH]c2ccccc12)C(=O)N[C@H](Cc1ccccc1)C(=O)N[C@H](CCC(N)=O)C(=O)N[C@H](CC(N)=O)C(=O)N[C@H](CCCNC(=N)N)C(=O)N[C@H](CCCNC(=N)N)C(=O)N[C@H](CCSC)C(=O)N[C@H](CCCCN)C(=O)N[C@H](Cc1c[nH]c2ccccc12)C(=O)N[C@H](CCCCN)C(=O)N[C@H](CCCCN)C(=O)O gave an IC50 of 1.9 µM (MEC1; cell growth or viability, flow cytometry; 90 min).

For quick reference, copied from above:
For CCCCCCCC(=O)NCCCC[C@H](NC(=O)CCCCCCC)C(=O)N[C@@H](CCCCNC(=O)CCCCCCC)C(=O)NCC(=O)NCC(=O)NCC(=O)N[C@@H](CS)C(=O)N[C@@H](CCCNC(=N)N)C(=O)N[C@@H](CCCCN)C(=O)N1CCC[C@H]1C(=O)N[C@@H](CS)C(=O)N[C@@H](CCCNC(=N)N)C(=O)N[C@@H](CCCCN)C(=O)N1CCC[C@H]1C(=O)N[C@@H](CS)C(=O)N[C@@H](CCCNC(=N)N)C(=O)N[C@@H](CCCCN)C(=O)N1CCC[C@H]1C(=O)N[C@@H](CS)C(=O)N[C@@H](CCCNC(=N)N)C(=O)N[C@@H](CCCCN)C(=O)N1CCC[C@H]1C(N)=O, the IC50 was 122 µM (HCE-T; cytotoxicity, MTT; 24 h).
